Experimental data gathered from unrelated publications.
A part holds a random share of what one study measured. Changes are numbered by the printed parent chain.

Series 1
Target: Histone acetyltransferase KAT6A, both winged helices, GST fusion (KAT6A, Homo sapiens, UniProt Q92794, residues 1-181)
Technique: protein binding microarray
Form: double-stranded DNA, one strand shown
Medium: in vitro
Tested at: not given
Notes: 8-mer, flanks averaged, mean of 2 arrays, mostly near background
Relative to: not given
Reading: higher = stronger binding
Construct (chain): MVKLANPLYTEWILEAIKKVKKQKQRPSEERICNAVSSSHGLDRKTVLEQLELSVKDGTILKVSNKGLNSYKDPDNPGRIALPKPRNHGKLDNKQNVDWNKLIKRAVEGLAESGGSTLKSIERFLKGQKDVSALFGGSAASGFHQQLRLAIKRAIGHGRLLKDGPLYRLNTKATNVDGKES
`GTGTTGAA` has an E-score of -0.0823.
`CACGATCC` gave an E-score of -0.0103.
With `AAATTAAC` the E-score was -0.0963.
For `CGTCGTAG`, the E-score was 0.023.
The E-score of `AGCAGTGC` is reported as -0.0587.
For `CCACGCGA`, the E-score was 0.113.
`CAATTTGA` gave an E-score of -0.0705.
`GAAAATCC` gave an E-score of -0.096.
The E-score of `CAGAAGGA` is reported as -0.0809.
`GACATGTC` has an E-score of 0.143.
`ACTGGCAT` has an E-score of -0.25.
For `CTCGAAAC`, the E-score was -0.0694.
The E-score of `CGCGACCG` is reported as 0.317.
`CTAGCTAA` has an E-score of -0.113.
`AGCGGGTC` gave an E-score of 0.238.
`AAACCAGG` has an E-score of -0.0937.
With `CTTTTAAC` the E-score was 0.043.
For `GCATGTAC`, the E-score was -0.0578.
With `CCCATGTA` the E-score was 0.0291.
For `CGTGCGAA`, the E-score was 0.119.
With `TCTCGTCA` the E-score was -0.121.
With `AGGTTCCC` the E-score was -0.0235.
For `ATACCCAT`, the E-score was -0.241.
With `CATATAAC` the E-score was -0.00539.
`CCCCACCC` has an E-score of -0.0955.

Series 2
Target: Prothrombin, mature alpha-thrombin (F2, Homo sapiens, UniProt P00734)
Technique: aptamer microarray, sandwich
Form: DNA with 2'F-ANA
Medium: in vitro
Tested at: 200 nM
Notes: whole 15-mer aptamer, many near background
Added: Cy3 exosite-II aptamer, 400 nM
Reading: higher = stronger binding
Oligonucleotide: GGTTGGTGTGGTTGG
Under “mean fluorescence intensity”, `2'F-ANA at 1 2 4 8 9 14 15` is recorded as 48.6 a.u.
`2'F-ANA at 3 6 7 8 12 13` — result for “mean fluorescence intensity”: 1210 a.u.
Under “mean fluorescence intensity”, `2'F-ANA at 1 2 3 11 12 15` is recorded as 427 a.u.
`2'F-ANA at 4 5 8 9 11 15`: “mean fluorescence intensity” 59.8 a.u.
`2'F-ANA at 2 3 5 6 11 12 14`: “mean fluorescence intensity” 52.1 a.u.
`2'F-ANA at 1 2 7 8 9 10 12` — result for “mean fluorescence intensity”: 81.8 a.u.
`2'F-ANA at 2 3 6 8 10 11 12`: “mean fluorescence intensity” 350 a.u.
`2'F-ANA at 2 4 6 7 8 12 14 15`: “mean fluorescence intensity” 147 a.u.
For `2'F-ANA at 1 3 7 10 11 12 14 15`, “mean fluorescence intensity” read 61.7 a.u.
`2'F-ANA at 3 9 11 13 14 15`: “mean fluorescence intensity” 542 a.u.
Under “mean fluorescence intensity”, `2'F-ANA at 3 4 5 6 7 8 9 12 14` is recorded as 75.7 a.u.
`2'F-ANA at 4 5 6 7 8 11 12 14 15` — result for “mean fluorescence intensity”: 49.4 a.u.
For `2'F-ANA at 1 4 5 6 7 8 10 11 12 13 14`, “mean fluorescence intensity” read 52.4 a.u.
For `2'F-ANA at 2 7 11`, “mean fluorescence intensity” read 431 a.u.
For `2'F-ANA at 3 5 6 9 10 12 13 15`, “mean fluorescence intensity” read 55.3 a.u.
Under “mean fluorescence intensity”, `2'F-ANA at 1 3 5 7 8 13 15` is recorded as 72.5 a.u.
`2'F-ANA at 1 2 3 4 8 9 12 13 14 15`: “mean fluorescence intensity” 67.2 a.u.
`2'F-ANA at 1 4 9 12 14 15`: “mean fluorescence intensity” 64.3 a.u.
`2'F-ANA at 1 3 5 9 11 12 14 15`: “mean fluorescence intensity” 46.4 a.u.
Under “mean fluorescence intensity”, `2'F-ANA at 4 7 11 12 15` is recorded as 504 a.u.
For `2'F-ANA at 2 3 7 9 10 12 14 15`, “mean fluorescence intensity” read 299 a.u.
For `2'F-ANA at 2 3 4 5 6 7 9 10 11 12 14 15`, “mean fluorescence intensity” read 55 a.u.
`2'F-ANA at 1 4 5 6 8 10 12 13 15` — result for “mean fluorescence intensity”: 76.7 a.u.
Under “mean fluorescence intensity”, `2'F-ANA at 3 4 5 6 7 9 12 13 14` is recorded as 49.4 a.u.
`2'F-ANA at 1 3 4 5 6 7 9 10 11 12 13 15` — result for “mean fluorescence intensity”: 54 a.u.

Series 3
Target: ABI1, truncated, D143A, DHFR fusion (Arabidopsis thaliana)
Technique: DHFR PCA, deep sequencing
Medium: yeast
Notes: methotrexate growth selection, single substitutions
Added: (+)-ABA 4.8 µM
Relative to: wild-type fitted maximum
Reading: higher = stronger binding
Starting sequence: PYL1, truncated, DHFR fusion (Arabidopsis thaliana); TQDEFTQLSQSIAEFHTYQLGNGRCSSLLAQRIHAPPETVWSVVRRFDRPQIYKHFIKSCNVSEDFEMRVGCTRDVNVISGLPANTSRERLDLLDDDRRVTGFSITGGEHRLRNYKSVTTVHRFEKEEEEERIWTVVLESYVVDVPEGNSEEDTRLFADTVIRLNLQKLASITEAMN; partner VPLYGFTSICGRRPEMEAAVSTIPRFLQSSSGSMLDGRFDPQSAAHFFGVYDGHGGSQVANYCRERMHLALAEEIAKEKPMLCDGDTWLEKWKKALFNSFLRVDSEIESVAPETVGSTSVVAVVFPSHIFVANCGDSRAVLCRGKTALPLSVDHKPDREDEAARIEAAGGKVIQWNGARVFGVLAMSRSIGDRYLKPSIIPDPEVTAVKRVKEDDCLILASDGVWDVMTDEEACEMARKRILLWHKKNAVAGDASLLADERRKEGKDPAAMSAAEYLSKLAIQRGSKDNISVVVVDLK
Under “relative binding score”, `G107M` is recorded as 1.66%.
Under “relative binding score”, `Q2P` is recorded as 74.5%.
`S117A`: “relative binding score” 31.6%.
`E147Q`: “relative binding score” 63.7%.
`V40D` — result for “relative binding score”: -15.1%.
Under “relative binding score”, `V43Q` is recorded as -1.71%.
`E109V`: “relative binding score” 43.2%.
`L112S` — result for “relative binding score”: -6.76%.
`V143D`: “relative binding score” -3.7%.
For `E38A`, “relative binding score” read 51.9%.
`Y18L`: “relative binding score” 22.5%.
For `D96V`, “relative binding score” read -1.5%.
`T39R`: “relative binding score” 67.5%.
Under “relative binding score”, `G23S` is recorded as 54.4%.
`D153R` — result for “relative binding score”: -5.43%.
`S87P`: “relative binding score” 24.9%.
Under “relative binding score”, `V136T` is recorded as 36.6%.
For `R90A`, “relative binding score” read 9.62%.
Under “relative binding score”, `A13H` is recorded as 62.1%.
`N85Q`: “relative binding score” 85%.
Under “relative binding score”, `F56V` is recorded as -6.44%.
Under “relative binding score”, `K168Q` is recorded as 62.9%.
`C72M`: “relative binding score” 69.6%.
Under “relative binding score”, `N165G` is recorded as -1.49%.
`A30T`: “relative binding score” 70.1%.

Series 4
Target: Ras GTPase-activating protein-binding protein 1, RRM domain (G3BP1, Homo sapiens, UniProt Q13283)
UniProt Q13283, sequence (whole entry, looked up): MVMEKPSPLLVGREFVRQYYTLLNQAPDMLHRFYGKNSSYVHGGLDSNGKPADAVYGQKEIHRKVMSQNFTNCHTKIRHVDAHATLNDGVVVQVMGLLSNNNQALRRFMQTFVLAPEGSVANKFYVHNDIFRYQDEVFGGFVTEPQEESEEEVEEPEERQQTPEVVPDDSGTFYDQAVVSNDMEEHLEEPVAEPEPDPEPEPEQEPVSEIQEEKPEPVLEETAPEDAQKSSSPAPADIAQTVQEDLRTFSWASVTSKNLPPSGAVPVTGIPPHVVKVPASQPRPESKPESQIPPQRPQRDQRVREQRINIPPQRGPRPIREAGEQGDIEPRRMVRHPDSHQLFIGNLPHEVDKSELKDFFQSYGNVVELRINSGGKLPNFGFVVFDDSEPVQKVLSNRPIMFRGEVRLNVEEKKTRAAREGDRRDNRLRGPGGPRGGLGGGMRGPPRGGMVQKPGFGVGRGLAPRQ
Technique: RNA Bind-n-Seq
Form: RNA
Medium: in vitro
Tested at: 1 µM
Notes: whole 134-nt RNA, ends assumed
Added: 150 mM KCl
Relative to: input library
Reading: higher = stronger binding
`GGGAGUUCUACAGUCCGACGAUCGUCCUGUGCUACACAUCGUAUGUACCGAAUCGGCCCCCCGGGCCCCCCGGCCCCCCGGGAAAGUAUUAUGUUACGCCGUUCGGAUCUGCAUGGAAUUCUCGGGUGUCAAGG` gave a log2 enrichment of -0.391.
For `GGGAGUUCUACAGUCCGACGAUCCUGUGCUACACAUCGUAUGUACCGAAUCGGCCCCCCCGGGGCCCCCCCGGGCCCCCCCGGGGAAAGUAUUAUGUUACGCCGUUCGGAUCUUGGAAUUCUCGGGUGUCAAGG`, the log2 enrichment was -0.592.
For `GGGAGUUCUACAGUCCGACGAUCACCAUGCAGGUGGGCAUCUUUGGGAAGUGGGGCGAGGGGGGGAUAGGGAGGGGGGUAACACUUUGGGAACAGGUGGUCCCAGGUCGUUUCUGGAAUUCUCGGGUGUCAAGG`, the log2 enrichment was -0.452.
`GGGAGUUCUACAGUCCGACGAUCAGUCCUGUGCUACACAUCGUAUGUACCGAAUCGGGAAAGGGAAAGGGAAAAAAAGGGAAAGUAUUAUGUUACGCCGUUCGGAUCUGCACUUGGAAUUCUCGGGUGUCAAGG` gave a log2 enrichment of 0.24.
For `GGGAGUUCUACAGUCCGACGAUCAUGGACUUGCACAUGAUGAACUGUGAACUUCUAGCCACAUGUAGUGCCCUUGGGUACUUGGAGGGAGACACUUACCAUAAGGAACCAGAUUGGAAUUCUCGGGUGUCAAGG`, the log2 enrichment was -0.176.
For `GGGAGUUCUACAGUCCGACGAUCCUCAAGUCCUGUGCUACACAUCGUAUGUACCGAAUCGGUUUGGAAAGGUUUGGAAAGUAUUAUGUUACGCCGUUCGGAUCUGCACUUCCAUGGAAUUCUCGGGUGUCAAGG`, the log2 enrichment was -0.271.
`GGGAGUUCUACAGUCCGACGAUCAAGUCCUGUGCUACACAUCGUAUGUACCGAAUCGGAAAAGGGGAAAAGGGGAAAAGGAAAGUAUUAUGUUACGCCGUUCGGAUCUGCACUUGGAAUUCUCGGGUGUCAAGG` has a log2 enrichment of 0.0312.
The log2 enrichment of `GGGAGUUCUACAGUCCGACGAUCCUCAAGUCCUGUGCUACACAUCGUAUGUACCGAAUCGGUUUGGAAAGGAAAGGAAAGUAUUAUGUUACGCCGUUCGGAUCUGCACUUCCAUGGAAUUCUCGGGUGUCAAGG` is reported as -0.121.
The log2 enrichment of `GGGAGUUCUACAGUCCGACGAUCUCAAGUCCUGUGCUACACAUCGUAUGUACCGAAUCGGUUUGGGGUUUGGGUUUGGAAAGUAUUAUGUUACGCCGUUCGGAUCUGCACUUCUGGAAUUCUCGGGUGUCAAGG` is reported as -0.302.
The log2 enrichment of `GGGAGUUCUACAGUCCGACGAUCAAGUCCUGUGCUACACAUCGUAUGUACCGAAUCGGGUUUGGGUUUUUGGGUUUGGGAAAGUAUUAUGUUACGCCGUUCGGAUCUGCACUUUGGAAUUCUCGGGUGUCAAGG` is reported as 0.532.

Single results of other studies
`PhoQ, residues 284 288 289 292 302 303 ASTSDA` has a fold induction of 13.2 (PhoP, residues 12 14 15 18 19 LHHSG (Escherichia coli, UniProt P23836); Sort-seq, item: YFP reporter; E. coli; PhoQ-PhoP variant library, added: 10 µM Mg2+; relative to: high Mg2+ state, higher = stronger signaling).

A few entries again (series 4):
`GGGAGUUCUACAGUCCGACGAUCGUCCUGUGCUACACAUCGUAUGUACCGAAUCGGCCCCCCGGGCCCCCCGGCCCCCCGGGAAAGUAUUAUGUUACGCCGUUCGGAUCUGCAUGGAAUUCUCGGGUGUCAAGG` gave a log2 enrichment of -0.391.
For `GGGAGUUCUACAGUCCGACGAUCCUGUGCUACACAUCGUAUGUACCGAAUCGGCCCCCCCGGGGCCCCCCCGGGCCCCCCCGGGGAAAGUAUUAUGUUACGCCGUUCGGAUCUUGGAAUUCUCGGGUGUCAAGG`, the log2 enrichment was -0.592.
For `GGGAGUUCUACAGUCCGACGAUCACCAUGCAGGUGGGCAUCUUUGGGAAGUGGGGCGAGGGGGGGAUAGGGAGGGGGGUAACACUUUGGGAACAGGUGGUCCCAGGUCGUUUCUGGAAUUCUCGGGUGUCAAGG`, the log2 enrichment was -0.452.
`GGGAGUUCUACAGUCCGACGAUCAGUCCUGUGCUACACAUCGUAUGUACCGAAUCGGGAAAGGGAAAGGGAAAAAAAGGGAAAGUAUUAUGUUACGCCGUUCGGAUCUGCACUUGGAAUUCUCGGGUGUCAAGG` gave a log2 enrichment of 0.24.
For `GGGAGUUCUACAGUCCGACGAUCAUGGACUUGCACAUGAUGAACUGUGAACUUCUAGCCACAUGUAGUGCCCUUGGGUACUUGGAGGGAGACACUUACCAUAAGGAACCAGAUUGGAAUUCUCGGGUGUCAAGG`, the log2 enrichment was -0.176.
For `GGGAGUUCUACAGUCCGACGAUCCUCAAGUCCUGUGCUACACAUCGUAUGUACCGAAUCGGUUUGGAAAGGUUUGGAAAGUAUUAUGUUACGCCGUUCGGAUCUGCACUUCCAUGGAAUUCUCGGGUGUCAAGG`, the log2 enrichment was -0.271.
`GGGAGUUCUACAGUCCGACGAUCAAGUCCUGUGCUACACAUCGUAUGUACCGAAUCGGAAAAGGGGAAAAGGGGAAAAGGAAAGUAUUAUGUUACGCCGUUCGGAUCUGCACUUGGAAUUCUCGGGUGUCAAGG` has a log2 enrichment of 0.0312.
The log2 enrichment of `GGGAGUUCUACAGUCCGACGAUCCUCAAGUCCUGUGCUACACAUCGUAUGUACCGAAUCGGUUUGGAAAGGAAAGGAAAGUAUUAUGUUACGCCGUUCGGAUCUGCACUUCCAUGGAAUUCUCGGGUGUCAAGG` is reported as -0.121.
